Assay results pooled from the literature.
A part holds a random share of what one study measured.

Series 1
Target: Ras GTPase-activating protein-binding protein 1, full length (G3BP1, Homo sapiens, UniProt Q13283)
Sequence of UniProt Q13283 (whole entry, looked up): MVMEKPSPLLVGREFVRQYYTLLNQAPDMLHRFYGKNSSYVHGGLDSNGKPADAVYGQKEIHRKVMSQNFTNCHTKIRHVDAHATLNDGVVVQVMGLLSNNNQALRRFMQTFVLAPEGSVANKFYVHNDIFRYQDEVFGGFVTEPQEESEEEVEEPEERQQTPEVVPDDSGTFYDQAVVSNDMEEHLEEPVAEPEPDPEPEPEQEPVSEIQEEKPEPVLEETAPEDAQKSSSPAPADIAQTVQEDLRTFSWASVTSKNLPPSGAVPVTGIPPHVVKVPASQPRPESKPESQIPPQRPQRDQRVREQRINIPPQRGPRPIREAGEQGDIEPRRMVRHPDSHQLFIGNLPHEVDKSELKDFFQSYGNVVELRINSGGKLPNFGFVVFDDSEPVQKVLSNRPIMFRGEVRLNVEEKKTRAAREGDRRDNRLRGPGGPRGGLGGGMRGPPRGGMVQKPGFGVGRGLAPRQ
Method: RNA Bind-n-Seq
Form: RNA
Medium: in vitro
Tested at: 200 nM
Setting: whole 134-nt RNA, ends assumed
Added: 150 mM KCl
Baseline: input library
Reading: higher = stronger binding
For `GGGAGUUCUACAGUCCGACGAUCACCAUGCAGGUGGGCAUCUUUGGGAAGUGGGGCAAGGGGGCGAUAGGGAGGGGGGUAACACUUUGGGAACAGGUGGUCCCAGGUCGUUUCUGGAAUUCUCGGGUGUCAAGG`, the log2 enrichment was 1.16.
The log2 enrichment of `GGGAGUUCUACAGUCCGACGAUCUGGCCCUGGUGGCAUGCGGGGAGGAAGAGGUGGCCUCAUGGAUCGUGGUGGUCCCGGUGGAAUGUUCAGAGGUGGCCGUGGUGGAGACUGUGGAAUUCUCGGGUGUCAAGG` is reported as 0.182.
`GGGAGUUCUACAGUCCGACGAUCAAGUCCUGUGCUACACAUCGUAUGUACCGAAUCGGGGCCCCGGGCCCCGGCCCCGGAAAGUAUUAUGUUACGCCGUUCGGAUCUGCACUUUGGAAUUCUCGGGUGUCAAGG` has a log2 enrichment of -1.03.
`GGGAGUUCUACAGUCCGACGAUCGUCCUGUGCUACACAUCGUAUGUACCGAAUCGGGGUUUUUGGGGAAAAAGGGGAGGGGAAAGUAUUAUGUUACGCCGUUCGGAUCUGCACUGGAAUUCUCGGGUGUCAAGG` gave a log2 enrichment of 0.461.
With `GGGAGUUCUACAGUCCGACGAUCUGGCCCUGGUGGCAUGCGGGGAGGAAGAGGUGGCCUCAUGGAUCGUGGUGGUCCCGGUGGAGUGUUCAGAGGUGGCCGUGGUGGAGACAGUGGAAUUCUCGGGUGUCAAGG` the log2 enrichment was 0.289.
`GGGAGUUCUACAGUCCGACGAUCUUGGGCUGCCCAUCACCGUGGCCCAUGUGGAUGGCCAAACCCACAUGUUAUUUGGCUCUGACCGGAUGGAGCUGCUGGCGCACCUGCUGGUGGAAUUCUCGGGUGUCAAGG` has a log2 enrichment of -1.49.
With `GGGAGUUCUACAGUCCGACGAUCUCCUGUGCUACACAUCGUAUGUACCGAAUCGGGUUUUUUGGUUUUUUGGUUUUUUGGGGAAAGUAUUAUGUUACGCCGUUCGGAUCUGCAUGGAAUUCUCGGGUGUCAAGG` the log2 enrichment was -0.826.

Series 2
Target: Interferon regulatory factor 7, full length, phosphomimetic (IRF7, Homo sapiens, UniProt Q92985, residues 1-503, S101K/S471D/S472D/S475D/S476D/S477D/S483D/S484D/S487D)
Method: protein-binding microarray
Form: double-stranded DNA, one strand shown
Medium: in vitro
Tested at: 250 nM
Setting: 60-bp whole probe
Added: salmon DNA 0.4 mg/ml
Baseline: random background probes
Reading: higher = stronger binding
All sequences stand within: GCCTAGCAC … GTCTTGATTCGCTTGACGCTGCTG
Residues (chain): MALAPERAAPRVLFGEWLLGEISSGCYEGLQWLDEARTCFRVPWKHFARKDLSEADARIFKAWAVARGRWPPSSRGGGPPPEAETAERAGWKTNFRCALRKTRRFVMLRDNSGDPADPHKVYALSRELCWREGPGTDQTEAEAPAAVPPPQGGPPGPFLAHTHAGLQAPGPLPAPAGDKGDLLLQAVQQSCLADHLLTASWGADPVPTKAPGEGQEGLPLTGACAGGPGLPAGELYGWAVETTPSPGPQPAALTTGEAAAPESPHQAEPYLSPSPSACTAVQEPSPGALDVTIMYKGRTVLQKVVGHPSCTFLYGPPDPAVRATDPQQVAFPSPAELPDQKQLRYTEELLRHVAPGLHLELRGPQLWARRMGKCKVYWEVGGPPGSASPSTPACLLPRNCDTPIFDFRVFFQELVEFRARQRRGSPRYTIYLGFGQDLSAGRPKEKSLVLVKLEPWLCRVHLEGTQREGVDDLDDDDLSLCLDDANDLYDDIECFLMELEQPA
For `TTAGATATCAGGTTCGATTAGTGCTAG`, the log fluorescence was 1.75 z-score.
`TCAGAATTAGGTTTCACACTGTGCTAG` gave a log fluorescence of 0.823 z-score.
For `TTGTCTCCCCCATCTTGTTCCGTGCTA`, the log fluorescence was 0.185 z-score.
The log fluorescence of `GACGGTTTCCTTTCCCTGATGTGCTAG` is reported as 4.63 z-score.
The log fluorescence of `GGCGATATCGGGTTTCGAGACGTGCTA` is reported as 2.43 z-score.
The log fluorescence of `TTAGATTTCAGACTGCATTAGTGCTAG` is reported as 0.0751 z-score.
`GTCAGTTTTGAGCTCTGTCTGTGCTAG` has a log fluorescence of 0.196 z-score.
For `TTAGGTTTCGACTTTCGTTTAGTGCTA`, the log fluorescence was 11.5 z-score.
`TCACCTTTCGGAATACCACTGTGCTAG` gave a log fluorescence of 1.47 z-score.
`ACTAGTGTTTTTCTCCTATTGTGCTAG` has a log fluorescence of 0.176 z-score.
`CCTTCCATCACTTTCCACTTGTGCTAG` gave a log fluorescence of 1.5 z-score.
`GACGGGCTGGACTATCGGGACGTGCTA` gave a log fluorescence of -1.09 z-score.
`TTAGAACTGGGGTTACGATTAGTGCTA` has a log fluorescence of -0.285 z-score.
`TCATCTTTCCCTGCCCCACTGTGCTAG` gave a log fluorescence of 1.39 z-score.
`TCACTTATTAAGATTGTGACTGTGCTA` has a log fluorescence of 0.312 z-score.
`GACGATATTAGTCTCGAGACGTGCTAG` gave a log fluorescence of 0.833 z-score.
With `TCAGAAATCAACTTTTTTACTGTGCTA` the log fluorescence was -0.433 z-score.

Series 3
Target: Histone acetyltransferase KAT6A, both winged helices, GST fusion (KAT6A, Homo sapiens, UniProt Q92794, residues 1-181)
Method: protein binding microarray
Form: double-stranded DNA, one strand shown
Medium: in vitro
Tested at: not given
Setting: 8-mer, flanks averaged, mean of 2 arrays, mostly near background
Baseline: not given
Reading: higher = stronger binding
Target sequence (chain): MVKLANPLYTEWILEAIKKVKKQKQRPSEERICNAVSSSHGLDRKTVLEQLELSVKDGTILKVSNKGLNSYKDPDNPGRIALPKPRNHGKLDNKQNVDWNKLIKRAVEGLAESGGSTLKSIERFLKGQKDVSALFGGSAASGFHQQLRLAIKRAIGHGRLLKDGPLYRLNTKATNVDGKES
With `TAGGACTA` the E-score was 0.0256.
The E-score of `CTCTGTCA` is reported as -0.113.
For `AACGAGCA`, the E-score was -0.181.
The E-score of `CGCGGGTA` is reported as 0.295.
For `AATCGCAC`, the E-score was -0.0145.
The E-score of `ACGCGCCC` is reported as 0.323.
`GCCGCTGA` has an E-score of 0.248.
`GAGATAAA` gave an E-score of 0.00225.
The E-score of `CCTGACAA` is reported as -0.242.
With `ACCACACG` the E-score was -0.0252.
`TCTGCCCA` gave an E-score of -0.197.
The E-score of `CTGCGCAC` is reported as 0.147.
`AAGAACTC` has an E-score of -0.103.
`GCGACGCA` has an E-score of 0.319.
The E-score of `GAAAAACC` is reported as 0.042.
With `TGAGTGCA` the E-score was -0.0684.
`CGTGCTGC` gave an E-score of 0.0264.
For `ACACGATC`, the E-score was -0.0126.
For `CGTGGTAG`, the E-score was -0.0325.
With `AGAGTTGC` the E-score was 0.0171.
The E-score of `ACTGCCCA` is reported as -0.256.
For `ATATTAAT`, the E-score was 0.0664.

Series 4
Target: RING finger protein unkempt homolog, zinc fingers 1-6, GST-SBP tag (UNK, Homo sapiens, UniProt Q9C0B0, residues 30-357)
Sequence of UniProt Q9C0B0 (30-357, looked up): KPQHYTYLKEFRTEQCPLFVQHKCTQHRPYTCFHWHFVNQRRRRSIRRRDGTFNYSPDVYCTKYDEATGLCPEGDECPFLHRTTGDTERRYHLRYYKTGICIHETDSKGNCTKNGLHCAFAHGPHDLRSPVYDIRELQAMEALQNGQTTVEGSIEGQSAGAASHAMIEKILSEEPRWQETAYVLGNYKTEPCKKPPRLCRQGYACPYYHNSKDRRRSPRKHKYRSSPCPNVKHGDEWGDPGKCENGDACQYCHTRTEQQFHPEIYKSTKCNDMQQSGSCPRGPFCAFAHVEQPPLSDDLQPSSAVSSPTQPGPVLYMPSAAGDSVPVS
Method: RNA Bind-n-Seq
Form: RNA
Medium: in vitro
Tested at: not given
Setting: RNA with constant flanks, ends assumed
Baseline: input RNA pool
Reading: higher = stronger binding
For `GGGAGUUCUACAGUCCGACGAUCGGCUCCCCUUCUACUGAAUUAGUUUCUGGAGGAUCUGAUAAUCAAGUGAUUCACUGGGAAACCGAGGAUAAUCAGCUUUUAAAAGCAGUGCAUCUUCAAGGCCAUGAAGGACCUGUUUAUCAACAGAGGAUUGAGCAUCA`, the bound/input enrichment was 0.149 ratio.
The bound/input enrichment of `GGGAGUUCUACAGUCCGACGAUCGUGAUGUCUUCCAGACUCGGUGCAGUCACCGCCGUGAGUUUCUUGGUGUGACCAUUAUACUUCCGAAAUAGAACUGUCGAGCUGAGAACACGCGGUCCUUUGCUUUUGUUUUGUACUCAGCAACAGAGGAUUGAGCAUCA` is reported as 0.2 ratio.
The bound/input enrichment of `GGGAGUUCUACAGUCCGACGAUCGACACUCUCAUCAAGACAUUUGUGCGCUCACAGACUGCCCAGGUACAUGAUGGGAAAGGUAUCCGGUUUACUGCUAACGAGGACAUUCGGCCAGAAAAGGGGGCUGGUGUGGAUGACCCCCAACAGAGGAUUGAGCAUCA` is reported as 0.219 ratio.
For `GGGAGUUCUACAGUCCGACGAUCGAUAAGAAAAGCUUGUUGGAGACCCGCUUGCAUGUCACUGGUAGAGACCUGAGGUGUCAAACCGCUGAAACUUUCGGAUUUCAAGAAAAUUACAUCAAGAUCGUAAUAAAUAAGAAACAGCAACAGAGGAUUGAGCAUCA`, the bound/input enrichment was 0.218 ratio.
For `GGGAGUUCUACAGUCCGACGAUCUUUCUUCCACCUACCACCGUGGCUGGUGCCACUCUUUACUCAGUGGCAAUGUACGGUGGAUCCGUUCUUUUCAGCAUGUUCCUUCUGUAUGAUACCCAGAAAGUAAUCAAGCGUGCAGAACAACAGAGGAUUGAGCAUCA`, the bound/input enrichment was 0.1 ratio.
The bound/input enrichment of `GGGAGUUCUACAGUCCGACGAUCUCCGAUAACUCCAGGUUUCCACUUGCAGUUGUAGAAGAGCCAAUUACUGUGGAAGUGGCUUUCCGAAACCCUUUAAAAGUUCCGCUUUUGCUGUCUGAUUUGUCAUUACUCUGGAAGUUUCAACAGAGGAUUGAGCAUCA` is reported as 0.185 ratio.
`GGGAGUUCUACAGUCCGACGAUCUUGCCUCCUCACUUUCCUGGGCAUUCCUCCGAGAUCUCCUGCCUCUCAACCUUUGCCCGUGCUAUUCUCUGUGCCUGGGACGAUACCUUUGACUCAUCUUCGACUGACCUAAUGGAGAGACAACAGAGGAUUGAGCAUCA` has a bound/input enrichment of 0.463 ratio.
`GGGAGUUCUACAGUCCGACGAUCAACAAACUUAUAGUGAUGCGUUGGAAGGUUAAUCGAAACCAUCCUUACCCCUAUUUAAUGCCGUUUACCUUGAUUUUUAUCUGAUAUUAACAAUACCAUAUAGCUUGCUUUUUAUUAGCACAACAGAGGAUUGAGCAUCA` has a bound/input enrichment of 6.58 ratio.

A few entries again (series 1):
With `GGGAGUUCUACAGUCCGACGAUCUGGCCCUGGUGGCAUGCGGGGAGGAAGAGGUGGCCUCAUGGAUCGUGGUGGUCCCGGUGGAGUGUUCAGAGGUGGCCGUGGUGGAGACAGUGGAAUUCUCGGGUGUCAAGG` the log2 enrichment was 0.289.
`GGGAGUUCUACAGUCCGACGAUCUUGGGCUGCCCAUCACCGUGGCCCAUGUGGAUGGCCAAACCCACAUGUUAUUUGGCUCUGACCGGAUGGAGCUGCUGGCGCACCUGCUGGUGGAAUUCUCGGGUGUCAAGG` has a log2 enrichment of -1.49.
With `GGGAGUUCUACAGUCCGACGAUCUCCUGUGCUACACAUCGUAUGUACCGAAUCGGGUUUUUUGGUUUUUUGGUUUUUUGGGGAAAGUAUUAUGUUACGCCGUUCGGAUCUGCAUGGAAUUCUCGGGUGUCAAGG` the log2 enrichment was -0.826.
